Assay results gathered from unrelated publications.
Parts stem from different laboratories: compare values within a part only.
UniProt Q16659, sequence (whole entry, looked up): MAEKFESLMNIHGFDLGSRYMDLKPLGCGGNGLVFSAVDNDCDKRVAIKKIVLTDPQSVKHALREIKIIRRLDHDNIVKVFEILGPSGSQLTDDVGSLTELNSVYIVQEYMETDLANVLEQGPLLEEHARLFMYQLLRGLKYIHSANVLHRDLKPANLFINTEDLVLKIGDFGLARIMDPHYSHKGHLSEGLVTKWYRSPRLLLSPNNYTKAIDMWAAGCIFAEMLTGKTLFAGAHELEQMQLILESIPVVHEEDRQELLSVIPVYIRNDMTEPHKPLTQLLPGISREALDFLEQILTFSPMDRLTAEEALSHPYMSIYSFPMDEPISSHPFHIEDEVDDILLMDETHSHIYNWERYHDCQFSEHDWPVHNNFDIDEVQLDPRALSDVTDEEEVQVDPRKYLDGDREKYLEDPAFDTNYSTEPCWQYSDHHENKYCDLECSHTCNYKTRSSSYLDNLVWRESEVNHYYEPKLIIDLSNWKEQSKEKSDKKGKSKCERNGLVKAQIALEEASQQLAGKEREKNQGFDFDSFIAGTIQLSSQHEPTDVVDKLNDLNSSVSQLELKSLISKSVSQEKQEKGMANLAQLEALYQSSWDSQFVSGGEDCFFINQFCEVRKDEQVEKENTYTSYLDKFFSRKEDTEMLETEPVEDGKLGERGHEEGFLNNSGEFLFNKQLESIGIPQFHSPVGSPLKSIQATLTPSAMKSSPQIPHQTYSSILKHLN
UniProt Q9UIK4, sequence (whole entry, looked up): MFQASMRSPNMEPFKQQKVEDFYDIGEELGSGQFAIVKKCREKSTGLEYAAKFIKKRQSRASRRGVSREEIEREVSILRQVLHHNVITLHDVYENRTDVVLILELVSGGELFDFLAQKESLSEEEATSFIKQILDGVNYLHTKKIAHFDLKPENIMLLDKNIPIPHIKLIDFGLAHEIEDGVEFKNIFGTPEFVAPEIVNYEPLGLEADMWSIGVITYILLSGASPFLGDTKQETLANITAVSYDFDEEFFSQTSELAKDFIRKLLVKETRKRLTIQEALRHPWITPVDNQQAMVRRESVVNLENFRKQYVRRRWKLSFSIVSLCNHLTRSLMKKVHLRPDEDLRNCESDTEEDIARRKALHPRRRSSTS
UniProt P42679, sequence (whole entry, looked up): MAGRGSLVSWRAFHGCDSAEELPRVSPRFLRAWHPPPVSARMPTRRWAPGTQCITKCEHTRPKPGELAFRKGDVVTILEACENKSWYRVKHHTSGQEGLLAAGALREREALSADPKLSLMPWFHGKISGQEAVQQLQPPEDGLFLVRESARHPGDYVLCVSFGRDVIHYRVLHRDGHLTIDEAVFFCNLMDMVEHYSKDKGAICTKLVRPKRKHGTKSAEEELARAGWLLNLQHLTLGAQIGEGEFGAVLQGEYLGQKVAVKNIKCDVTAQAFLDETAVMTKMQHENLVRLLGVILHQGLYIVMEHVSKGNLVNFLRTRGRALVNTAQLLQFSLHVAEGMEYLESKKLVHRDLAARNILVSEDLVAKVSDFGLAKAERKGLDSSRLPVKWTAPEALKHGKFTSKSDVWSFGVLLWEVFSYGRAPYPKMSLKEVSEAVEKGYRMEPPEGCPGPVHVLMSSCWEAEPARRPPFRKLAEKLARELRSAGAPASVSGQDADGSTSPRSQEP
UniProt O94768, sequence (whole entry, looked up): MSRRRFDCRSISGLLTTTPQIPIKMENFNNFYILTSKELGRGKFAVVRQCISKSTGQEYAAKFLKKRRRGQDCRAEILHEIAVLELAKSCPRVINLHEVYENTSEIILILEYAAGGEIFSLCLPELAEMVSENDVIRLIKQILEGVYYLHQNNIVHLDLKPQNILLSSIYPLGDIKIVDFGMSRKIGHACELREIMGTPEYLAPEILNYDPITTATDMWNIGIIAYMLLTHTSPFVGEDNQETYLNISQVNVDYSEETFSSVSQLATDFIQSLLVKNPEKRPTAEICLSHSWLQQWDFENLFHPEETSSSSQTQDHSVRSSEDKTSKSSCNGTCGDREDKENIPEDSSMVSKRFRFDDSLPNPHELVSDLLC

Set 1
Target: Bromodomain-containing protein 4, BD1 (BRD4, Homo sapiens, UniProt O60885)
Tested at: 50 µM
`CNC(=O)c1cc(Oc2ccc(NC(=O)Nc3ccc(Cl)c(C(F)(F)F)c3)cc2)ccn1` has an inhibition of 8.6%.
For `C[C@@H](Oc1cc(-c2cnn(C3CCNCC3)c2)cnc1N)c1c(Cl)ccc(F)c1Cl`, the inhibition was 71.1%.
`COc1cccc2cc(-c3nc([C@H]4CC[C@H](C(=O)O)CC4)n4ncnc(N)c34)[nH]c12` gave an inhibition of 2.15%.
`N#CC1(c2ccc(NC(=O)c3cccnc3NCc3ccncc3)cc2)CCCC1` has an inhibition of 13.8%.
With `Cc1ccc(C(=O)Nc2ccc(CN3CCN(C)CC3)c(C(F)(F)F)c2)cc1C#Cc1cnc2cccnn12` the inhibition was 76.1%.
With `NC1(c2ccc(-c3nc4ccn5c(=O)[nH]nc5c4cc3-c3ccccc3)cc2)CCC1` the inhibition was 21.4%.

Set 2
Target: Calcium/calmodulin-dependent protein kinase type II subunit alpha (CAMK2A, Homo sapiens, UniProt Q9UQM7)
UniProt Q9UQM7, sequence (whole entry, looked up): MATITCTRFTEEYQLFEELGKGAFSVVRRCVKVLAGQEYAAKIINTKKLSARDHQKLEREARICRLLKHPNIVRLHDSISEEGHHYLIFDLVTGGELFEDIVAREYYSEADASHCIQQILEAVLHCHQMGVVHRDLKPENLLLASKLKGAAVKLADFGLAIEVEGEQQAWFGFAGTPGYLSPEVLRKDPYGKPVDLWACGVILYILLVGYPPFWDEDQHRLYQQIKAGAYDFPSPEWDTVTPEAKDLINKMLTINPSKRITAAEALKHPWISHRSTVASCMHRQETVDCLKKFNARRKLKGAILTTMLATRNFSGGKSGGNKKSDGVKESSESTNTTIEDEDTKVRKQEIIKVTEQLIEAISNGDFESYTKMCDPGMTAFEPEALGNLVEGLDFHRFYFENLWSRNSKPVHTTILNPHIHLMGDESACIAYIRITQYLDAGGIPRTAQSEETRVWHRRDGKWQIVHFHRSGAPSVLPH
Read-out: enzyme activity
Mode: inhibitor
Tested at: 10 µM
The inhibition of `CC(C)=CC1CC(O)(C2CCC3(C)C2CCC2C4(C=O)CCC(OC5OCC(O)C(OC6OCC(O)C(O)C6O)C5OC5OC(C)C(O)C(O)C5O)C(C)(C)C4CCC23C)C(O)O1` (stereo not shown) is reported as 10%.
The inhibition of `CO[C@@]1(NC(=O)CSC(F)F)C(=O)N2C(C(=O)O)=C(CSc3nnnn3CCO)CO[C@@H]21` is reported as -8%.
`OC[C@H]1O[C@@H](OCCc2ccc(O)cc2)[C@H](O)[C@@H](O)[C@@H]1O` has an inhibition of -20%.
With `COC(=O)CCCC(=O)O` the inhibition was -13%.
`C[C@H]1COc2c(C3(N)CC3)c(F)cc3c(=O)c(C(=O)O)cn1c23` gave an inhibition of -3%.
With `OCCCO` the inhibition was -3%.
The inhibition of `O=c1cc(-c2ccccc2)oc2cc(O)c(O)c(O)c12` is reported as -10%.
`O=C(O)c1cc(=O)cc(C(=O)O)o1` has an inhibition of 0%.

Set 3
Structure (SMILES): CO[C@H]1CC[C@H](CNc2ccc(S(=O)(=O)NC(=O)c3ccc(N4CCN(CC5=C(c6ccc(Cl)cc6)CC(C)(C)CC5)CC4)cc3Oc3cnc4[nH]ccc4c3)cc2[N+](=O)[O-])CC1
Read-out: cell-free assay
Technique: competition with immobilised ligand
Tested at: 1 µM
The remaining binding was 89% (Megakaryocyte-associated tyrosine-protein kinase (MATK, Homo sapiens, UniProt P42679)).
It gave 78% for remaining binding (Mitogen-activated protein kinase kinase kinase 5 (MAP3K5, Homo sapiens, UniProt Q99683)).
The remaining binding was 100% (Tyrosine-protein kinase Fes/Fps (FES, Homo sapiens, UniProt P07332)).
For Glycogen synthase kinase-3 alpha (GSK3A, Homo sapiens, UniProt P49840): remaining binding read 100%.
The remaining binding was 81% (Mitogen-activated protein kinase 6 (MAPK6, Homo sapiens, UniProt Q16659)).
The remaining binding was 86% (Phosphatidylinositol 4-phosphate 5-kinase type-1 alpha (PIP5K1A, Homo sapiens, UniProt Q99755)).
It gave 67% for remaining binding (Epidermal growth factor receptor (EGFR, Homo sapiens, UniProt P00533, G719C)).
Receptor-type tyrosine-protein kinase FLT3 (FLT3, Homo sapiens, UniProt P36888, N841I) — remaining binding: 100%.
Death-associated protein kinase 2 (DAPK2, Homo sapiens, UniProt Q9UIK4) — remaining binding: 75%.
It gave 93% for remaining binding (Proto-oncogene tyrosine-protein kinase receptor Ret (RET, Homo sapiens, UniProt P07949, V804M)).
The remaining binding was 100% (Casein kinase I isoform gamma-1 (CSNK1G1, Homo sapiens, UniProt Q9HCP0)).
Leucine-rich repeat serine/threonine-protein kinase 2 (LRRK2, Homo sapiens, UniProt Q5S007, G2019S) — remaining binding: 100%.
For Phosphatidylinositol 4,5-bisphosphate 3-kinase catalytic subunit alpha isoform (PIK3CA, Homo sapiens, UniProt P42336, E545K): remaining binding read 96%.
The remaining binding was 84% (Tyrosine-protein kinase receptor TYRO3 (TYRO3, Homo sapiens, UniProt Q06418)).
For Serine/threonine-protein kinase 17B (STK17B, Homo sapiens, UniProt O94768): remaining binding read 91%.

Set 4
Target: DNA polymerase theta, ATPase domain (POLQ, Homo sapiens, UniProt O75417)
UniProt O75417, sequence (whole entry, unmodified, looked up): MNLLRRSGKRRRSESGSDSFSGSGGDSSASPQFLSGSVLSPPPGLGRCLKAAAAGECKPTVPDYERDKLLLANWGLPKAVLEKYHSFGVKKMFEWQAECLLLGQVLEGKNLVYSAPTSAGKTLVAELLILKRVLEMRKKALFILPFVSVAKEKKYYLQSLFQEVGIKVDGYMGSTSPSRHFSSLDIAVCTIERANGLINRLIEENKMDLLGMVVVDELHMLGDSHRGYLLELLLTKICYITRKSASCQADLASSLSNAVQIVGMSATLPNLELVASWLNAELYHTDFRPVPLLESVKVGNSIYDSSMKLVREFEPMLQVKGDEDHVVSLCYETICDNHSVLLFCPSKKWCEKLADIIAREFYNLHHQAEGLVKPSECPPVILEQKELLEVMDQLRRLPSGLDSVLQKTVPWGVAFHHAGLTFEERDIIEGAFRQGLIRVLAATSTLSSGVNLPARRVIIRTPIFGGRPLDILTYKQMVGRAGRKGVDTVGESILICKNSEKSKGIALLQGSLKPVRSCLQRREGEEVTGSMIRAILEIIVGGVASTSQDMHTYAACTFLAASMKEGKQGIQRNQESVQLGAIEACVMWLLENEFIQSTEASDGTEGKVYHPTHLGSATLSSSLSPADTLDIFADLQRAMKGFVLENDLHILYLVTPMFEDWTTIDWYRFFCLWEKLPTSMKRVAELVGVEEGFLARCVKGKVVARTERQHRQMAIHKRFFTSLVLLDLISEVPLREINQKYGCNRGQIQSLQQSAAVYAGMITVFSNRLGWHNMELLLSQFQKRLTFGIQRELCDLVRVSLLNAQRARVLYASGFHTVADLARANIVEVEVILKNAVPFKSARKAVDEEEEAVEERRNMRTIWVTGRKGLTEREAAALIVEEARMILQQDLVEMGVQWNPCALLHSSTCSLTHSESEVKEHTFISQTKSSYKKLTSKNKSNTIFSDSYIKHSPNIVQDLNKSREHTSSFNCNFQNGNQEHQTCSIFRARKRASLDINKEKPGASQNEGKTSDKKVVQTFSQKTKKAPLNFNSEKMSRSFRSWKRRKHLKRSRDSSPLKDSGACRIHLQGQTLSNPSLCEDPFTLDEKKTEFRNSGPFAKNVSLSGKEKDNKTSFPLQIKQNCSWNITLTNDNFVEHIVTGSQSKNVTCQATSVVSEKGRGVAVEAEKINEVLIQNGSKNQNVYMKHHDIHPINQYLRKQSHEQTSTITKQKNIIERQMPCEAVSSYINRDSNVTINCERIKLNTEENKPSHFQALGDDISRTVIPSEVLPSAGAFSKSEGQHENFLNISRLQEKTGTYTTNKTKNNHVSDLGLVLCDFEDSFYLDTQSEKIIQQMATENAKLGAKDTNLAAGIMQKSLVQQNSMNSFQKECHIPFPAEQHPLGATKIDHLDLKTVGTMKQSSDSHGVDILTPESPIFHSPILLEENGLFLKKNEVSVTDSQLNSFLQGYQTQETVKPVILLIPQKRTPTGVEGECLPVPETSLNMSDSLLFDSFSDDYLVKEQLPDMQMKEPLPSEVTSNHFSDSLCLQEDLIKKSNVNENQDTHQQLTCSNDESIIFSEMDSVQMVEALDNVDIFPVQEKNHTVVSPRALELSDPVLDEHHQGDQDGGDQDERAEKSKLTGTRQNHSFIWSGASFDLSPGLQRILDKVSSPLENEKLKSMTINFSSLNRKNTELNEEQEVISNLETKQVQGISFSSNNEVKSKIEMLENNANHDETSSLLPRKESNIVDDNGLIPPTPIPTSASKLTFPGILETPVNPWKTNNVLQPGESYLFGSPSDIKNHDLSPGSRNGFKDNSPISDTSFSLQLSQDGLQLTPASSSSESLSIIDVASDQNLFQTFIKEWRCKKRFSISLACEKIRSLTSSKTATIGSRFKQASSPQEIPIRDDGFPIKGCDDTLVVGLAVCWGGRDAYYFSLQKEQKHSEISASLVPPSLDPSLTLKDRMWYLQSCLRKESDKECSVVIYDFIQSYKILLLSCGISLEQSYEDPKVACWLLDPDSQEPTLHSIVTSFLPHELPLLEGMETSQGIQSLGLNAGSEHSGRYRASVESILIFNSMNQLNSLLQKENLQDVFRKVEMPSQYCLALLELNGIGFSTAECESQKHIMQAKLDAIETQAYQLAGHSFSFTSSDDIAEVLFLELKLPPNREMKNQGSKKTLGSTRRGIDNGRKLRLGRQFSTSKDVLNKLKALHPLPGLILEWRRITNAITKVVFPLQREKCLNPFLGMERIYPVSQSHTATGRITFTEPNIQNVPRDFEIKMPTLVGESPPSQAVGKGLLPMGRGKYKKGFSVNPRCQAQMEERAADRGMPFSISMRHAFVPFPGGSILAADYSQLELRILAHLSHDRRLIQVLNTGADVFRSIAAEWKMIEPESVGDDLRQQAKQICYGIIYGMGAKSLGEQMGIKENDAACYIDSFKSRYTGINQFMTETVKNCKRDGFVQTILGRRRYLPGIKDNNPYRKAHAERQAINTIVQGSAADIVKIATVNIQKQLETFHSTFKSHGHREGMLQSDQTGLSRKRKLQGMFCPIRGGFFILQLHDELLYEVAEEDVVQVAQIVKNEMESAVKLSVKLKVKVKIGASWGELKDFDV
Read-out: enzyme activity
Mode: inhibitor
Tested at: 77 µM
Relative to: untreated
For `c1ccc(-c2n[nH]c3c2oc2ccccc23)cc1`, the remaining activity was 113%.
The remaining activity of `CCN(C)C(=O)Oc1cccc([C@H](C)N(C)C)c1` is reported as 96.6%.
`Cc1cccc(C(=O)NCN2CCN(c3ccccc3C#N)CC2)c1` has a remaining activity of 98.6%.
`CCN(CCCCOC(=O)c1ccc(OC)c(OC)c1)C(C)Cc1ccc(OC)cc1` (stereo not shown) has a remaining activity of 104%.
With `CCN(CC)CCOC(=O)c1ccc(N)cc1Cl` the remaining activity was 101%.

A few entries again (set 3):
The remaining binding was 100% (Tyrosine-protein kinase Fes/Fps (FES, Homo sapiens, UniProt P07332)).
The remaining binding was 81% (Mitogen-activated protein kinase 6 (MAPK6, Homo sapiens, UniProt Q16659)).
For Serine/threonine-protein kinase 17B (STK17B, Homo sapiens, UniProt O94768): remaining binding read 91%.
The remaining binding was 100% (Casein kinase I isoform gamma-1 (CSNK1G1, Homo sapiens, UniProt Q9HCP0)).
The remaining binding was 89% (Megakaryocyte-associated tyrosine-protein kinase (MATK, Homo sapiens, UniProt P42679)).
